Measured values collected from several papers.
± gives the spread as reported.

SMILES	tested on	test	system	setting	scale	endpoint	result
CCOC(=O)C1=C(C)NC2=C(C(=O)CC(C)(C)C2)C1c1ccc(OCC(=O)NN=Cc2cccc([N+](=O)[O-])c2)cc1OCC(=O)NN=Cc1cccc([N+](=O)[O-])c1 (stereo not drawn)	Priestia megaterium		DSM 32	concentration not given, 24 h, 37 °C		inhibition zone diameter	9.2 ± 0.2 mm
CCCCCCCCCCCCCCC(Br)C(=O)O[C@@H](C(=O)O[C@H]1C[C@@]2(O)[C@@H](OC(=O)c3ccccc3)[C@@H]3[C@]4(OC(C)=O)CO[C@@H]4C[C@H](O)[C@@]3(C)C(=O)[C@H](OC(C)=O)C(=C1C)C2(C)C)[C@@H](NC(=O)c1ccccc1)c1ccccc1 (stereo partly drawn)	tubulin			10 µM, 37 °C, with: tubulin 3 mg/mL		Vmax of tubulin polymerization	20 ± 1.4 mOD/min
COc1cc2c(OC3OCC(OC)C(OC)C3OC(=O)c3ccc(Br)cc3)c3c(c(-c4ccc5c(c4)OCO5)c2cc1OC)C(=O)OC3 (stereo not drawn)	FaDu spheroids	Hoechst/EthD-1 staining		0.1 µM, 72 h		live/dead cell ratio	decreased
CCC(=O)N(C)c1ccc(Cl)c(Cl)c1	CAR3 constitutive androstane receptor, human	reporter gene, agonist		0.32 µM	baseline: vehicle	fold activation	0.48 fold
COc1cc(CNC(=O)C[C@H](C)CCC=C(C)C)ccc1O	EKVX	SRB		10 µM, 48 h		growth percent	86.3%
CC(=O)OC[C@H]1O[C@@H](Sc2sc(C(=O)c3ccc(C)cc3)c(N)c2-c2nc3ccccc3s2)[C@H](OC(C)=O)[C@@H](OC(C)=O)[C@@H]1OC(C)=O	RXF 393	SRB		10 µM, 48 h	baseline: untreated	growth	53.5%
COc1cc(CNC(=O)C[C@H](C)CCC=C(C)C)ccc1OCc1cn(-c2cccc(C(F)(F)F)c2)nn1	Hs-578T breast cancer cells	SRB		10 µM, 48 h		growth percent	94.3%
CO[C@@H]1[C@H](O)[C@@H](COP(=O)(O)OP(=O)([S-])OP(=O)(S)OC[C@H]2O[C@@H](n3cnc4c(=O)[nH]c(N)nc43)[C@H](O)[C@@H]2O)O[C@H]1n1c[n+](C)c2c(O)nc(N)nc21 (mixture of isomers)	Schizosaccharomyces pombe Dcp1/Dcp2 complex	substrate	capped short RNA	15 min, 30 °C		decapping	32.2 ± 1.5%
COc1cc(CNC(=O)C[C@H](C)CCC=C(C)C)ccc1OCc1cn(-c2ccc(Cl)cc2Cl)nn1	DU-145	SRB		10 µM, 48 h		growth percent	90.5%
CC[C@H]1[C@@H](O)[C@@H]2[C@H](CC[C@]3(C)[C@@H]([C@H](C)CCOS(=O)(=O)[O-])CC[C@@H]23)[C@@]2(C)CC[C@@H](O)C[C@@H]12.[Na+]		EchoMRI	ob/ob NASH mouse model	oral, 3 mg/kg once daily, before treatment, baseline of 8 week study	baseline: body weight	whole-body fat mass	38.4 ± 1.2%
COc1cc(CNC(=O)C[C@H](C)CCC=C(C)C)ccc1OCc1cn(-c2ccc(Br)cc2)nn1	Hs-578T breast cancer cells	SRB		10 µM, 48 h		growth percent	73.8%
CC(C)C[C@H](NC(=O)[C@H](CO)NC(=O)[C@H](CCCNC(=N)N)NC(=O)[C@H](CC(=O)O)NC(=O)[C@H](CCC(=O)O)NC(=O)[C@H](C)NC(=O)[C@@H]1CCCN1C(=O)[C@H](C)NC(=O)[C@H](CCC(=O)O)NC(=O)[C@@H]1CCCN1C(=O)[C@@H]1CCCN1)C(N)=O	dopamine system		rhesus monkey, contralateral globus pallidus	intranasal, dose not given, repeated dose escalation	baseline: vehicle	HVA level reduction	21%

A few entries again:
SMILES	tested on	test	system	setting	scale	endpoint	result
CO[C@@H]1[C@H](O)[C@@H](COP(=O)(O)OP(=O)([S-])OP(=O)(S)OC[C@H]2O[C@@H](n3cnc4c(=O)[nH]c(N)nc43)[C@H](O)[C@@H]2O)O[C@H]1n1c[n+](C)c2c(O)nc(N)nc21 (mixture of isomers)	Schizosaccharomyces pombe Dcp1/Dcp2 complex	substrate	capped short RNA	15 min, 30 °C		decapping	32.2 ± 1.5%
COc1cc(CNC(=O)C[C@H](C)CCC=C(C)C)ccc1OCc1cn(-c2ccc(Cl)cc2Cl)nn1	DU-145	SRB		10 µM, 48 h		growth percent	90.5%
